Measurements collected from several papers.
Target: Serine/threonine-protein kinase PAK 4 (PAK4, Homo sapiens, UniProt O96013)
UniProt O96013, sequence (whole entry, looked up): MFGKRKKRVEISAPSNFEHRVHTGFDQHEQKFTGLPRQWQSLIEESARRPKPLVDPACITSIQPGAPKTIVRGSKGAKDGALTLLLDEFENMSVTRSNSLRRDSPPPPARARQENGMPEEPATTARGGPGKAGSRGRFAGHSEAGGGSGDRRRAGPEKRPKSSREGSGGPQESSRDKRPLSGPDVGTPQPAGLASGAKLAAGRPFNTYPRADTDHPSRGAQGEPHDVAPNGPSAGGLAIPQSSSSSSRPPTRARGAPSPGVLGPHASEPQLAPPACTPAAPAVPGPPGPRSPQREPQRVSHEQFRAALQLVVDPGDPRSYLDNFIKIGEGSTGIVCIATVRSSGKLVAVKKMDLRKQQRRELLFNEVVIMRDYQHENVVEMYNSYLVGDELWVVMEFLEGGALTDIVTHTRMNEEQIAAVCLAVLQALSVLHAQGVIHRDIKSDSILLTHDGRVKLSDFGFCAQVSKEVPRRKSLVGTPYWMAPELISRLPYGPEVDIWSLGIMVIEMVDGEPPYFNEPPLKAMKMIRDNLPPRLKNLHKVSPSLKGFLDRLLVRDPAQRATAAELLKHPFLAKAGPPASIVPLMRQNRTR

SMILES | assay | conditions | how to read | quantity | value
CS(C)(=O)=Nc1ccc(-c2ccc(-c3nc4cc(O[C@@H]5CO[C@H]6[C@@H]5OC[C@H]6O)[nH]c4cc3F)cc2)cc1 | enzyme activity, inhibitor | 10 µM | – | inhibition | 2%
O=C(N[C@@H]1c2ccccc2C[C@H]1N1CCCC1)c1ccc(-c2ccnc3[nH]ccc23)nc1 | binding, competition with immobilised ligand | 3 µM | – | remaining binding | 6.5%
CCOC(=O)[C@@H]1Cc2c(cc([N+](=O)[O-])cc2[N+](=O)[O-])[C@H](O)[C@]12C(=O)Nc1ccc(Br)cc12 | binding, competition with immobilised ligand | 0.1 µM | – | remaining binding | 93%
C[C@H](NCc1ccc(-c2ccc(C(F)(F)F)cc2)cc1)C(N)=O | cell-free assay, competition with immobilised ligand | 1 µM | – | inhibition | 0%
CC(C)[C@H]1NC(=O)C[C@H]2/C=C/CCSSC[C@@H](NC1=O)C(=O)N[C@H](Cc1cccc3ccccc13)C(=O)NCC(=O)O2 | enzyme activity, inhibitor | 10 µM | – | inhibition | 1.3%
O=C1NC(=O)c2c1c1cc(F)c[n+]3c1c1c2c2cc(O)ccc2[n]1[Ru-4]312([N]=C=S)[S+]3CC[S+]1CC[S+]2CC3 (centres unmarked) | enzyme activity | 100 nM, human enzyme, added: 10 µM ATP | relative to: untreated | remaining activity | 71%
N[C@H](C(=O)N1CCCC1)C1CCN(c2nccc3c(-c4ncc(Cl)cc4Cl)cccc23)CC1 | kinase activity, inhibitor | 10 µM, added: ATP 1 mM | – | inhibition | 1.4%
Nc1ccc(/C=C/C(=O)N2CCc3c(oc4c(-c5ccc(F)cc5)cc(-c5ccc(C(=O)N6CCC(F)(F)CC6)cn5)cc34)C2)cn1 | binding, competition with immobilised ligand | 1 µM | – | remaining binding | 91%

Excerpt of the above:
SMILES | assay | conditions | how to read | quantity | value
CS(C)(=O)=Nc1ccc(-c2ccc(-c3nc4cc(O[C@@H]5CO[C@H]6[C@@H]5OC[C@H]6O)[nH]c4cc3F)cc2)cc1 | enzyme activity, inhibitor | 10 µM | – | inhibition | 2%
